Published values from different studies.
Numbered parts are unrelated; each lists some results of a single study.

Study 1
Target: Prothrombin, mature alpha-thrombin (F2, Homo sapiens, UniProt P00734)
Method: aptamer microarray, sandwich
Molecule type: DNA with 2'F-ANA
Sample: in vitro
Concentration: 200 nM
Setting: whole 15-mer aptamer, many near background
Added: Cy3 exosite-II aptamer, 400 nM
Direction: higher = stronger binding
Oligonucleotide: GGTTGGTGTGGTTGG
Modification	mean fluorescence intensity [a.u.]
2'F-ANA at 1 2 3 5 7 9 11 14 15	48.3
2'F-ANA at 2 5 6 7 9 10 11 13 14 15	48
2'F-ANA at 1 3 4 5 7 13 14	79.4
2'F-ANA at 2 3 4 5 7 8 12 13	131
2'F-ANA at 6 10 12 13 14 15	101
2'F-ANA at 1 3 4 5 7 12 13 14 15	70.1
2'F-ANA at 2 3 7 8 9 11 12 14 15	527
2'F-ANA at 3 7 8 10 12 13 14 15	403
2'F-ANA at 1 2 3 5 6 12 13	89.4
2'F-ANA at 1 3 4 5 8 9 13	48.3
2'F-ANA at 1 2 3 4 5 6 8 14 15	65.3
2'F-ANA at 7 11 12 14 15	224
2'F-ANA at 1 3 4 5 9 10 11 13 14	45.2
2'F-ANA at 7	737
2'F-ANA at 1 2 3 4 5 6 7 8 12	118
2'F-ANA at 2 3 5 6 7 8 9 10 13 14	51.9
2'F-ANA at 3 4 6 7 12 13	747
2'F-ANA at 1 2 3 4 5 6 7 9 11 12 13 14 15	55.8
2'F-ANA at 1 3 5 6 8 10 12 14 15	48.6
2'F-ANA at 4 6 13 15	164
2'F-ANA at 2 5 6 10 11 13 14 15	48
2'F-ANA at 2 4 6 7 8 9 11 13	200
2'F-ANA at 1 2 3 5 8 10 12 13 14	47.7
2'F-ANA at 2 5 7 8 9 10 12 14	51.9
2'F-ANA at 2 3 6 8 10	312

Study 2
Target: Interferon regulatory factor 7, full length, phosphomimetic (IRF7, Homo sapiens, UniProt Q92985, residues 1-503, S101K/S471D/S472D/S475D/S476D/S477D/S483D/S484D/S487D)
UniProt Q92985, sequence (whole entry, unmodified, looked up): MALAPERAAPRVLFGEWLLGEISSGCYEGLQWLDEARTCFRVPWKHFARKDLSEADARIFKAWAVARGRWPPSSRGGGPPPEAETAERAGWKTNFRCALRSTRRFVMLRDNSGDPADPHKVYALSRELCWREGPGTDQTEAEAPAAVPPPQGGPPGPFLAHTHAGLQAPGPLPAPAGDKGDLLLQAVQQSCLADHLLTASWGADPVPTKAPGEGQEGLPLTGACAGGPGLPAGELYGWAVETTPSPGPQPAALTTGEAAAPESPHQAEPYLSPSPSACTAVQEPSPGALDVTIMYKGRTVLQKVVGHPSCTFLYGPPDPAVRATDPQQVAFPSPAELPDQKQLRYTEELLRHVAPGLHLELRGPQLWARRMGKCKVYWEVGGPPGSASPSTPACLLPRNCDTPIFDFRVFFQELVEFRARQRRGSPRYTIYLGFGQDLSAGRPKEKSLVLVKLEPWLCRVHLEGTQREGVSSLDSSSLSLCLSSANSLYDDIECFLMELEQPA
Method: protein-binding microarray
Molecule type: double-stranded DNA, one strand shown
Sample: in vitro
Concentration: 250 nM
Setting: 60-bp whole probe
Added: salmon DNA 0.4 mg/ml
Baseline: random background probes
Direction: higher = stronger binding
Shared flanks, not repeated: GCCTAGCAC … GTCTTGATTCGCTTGACGCTGCTG
Oligonucleotide	log fluorescence
GACGGTCTAGGTTTCGGGACGTGCTAG	1.97 z-score
GACGATTTCCGACTGGAGACGTGCTAG	0.538 z-score
TTAGATTTCAGTCTCGATCAGTGCTAG	0.917 z-score
TTCAATTTTTGCATCGTAAGGTGCTAG	0.0952 z-score
GGCGGTCTCCTTTTCCTGACGTGCTAG	1.05 z-score
TCAATTTTAGTTTTCATACTGTGCTAG	0.959 z-score
TTAGGTATCCTTATCCTGTAGTGCTAG	0.263 z-score
TTAGGTCTCGGTTTAGGTTAGTGCTAG	7.76 z-score
TTAGGTTTCCTTTCCCTATAGTGCTAG	5.2 z-score
GACGGTATCCTTCTCCTGCCGTGCTAG	-0.0607 z-score
TTATGTCTCCTTCTCCTTTAGTGCTAG	0.589 z-score
TTAGGTCTCCTTCTCCTTAAGTGCTAG	0.699 z-score
TTAGGTTTCGGTTTCGATTAGTGCTAG	16.1 z-score
TCATGGATATATATCATACTGTGCTAG	-0.16 z-score
TTCCTTTGCTTTCTCCCAAGGTGCTAG	1.47 z-score
TCCTGTTTGATAATTTTTTTGTGCTAG	0.614 z-score
CTCTTTCTCTGCTACCCTCTGGTGCTA	2.02 z-score
TTAGAACTGAGTTTGGATTAGTGCTAG	-0.0844 z-score
TATTACCTCATCTTTCCCTGCGTGCTA	1.11 z-score
ATGTGTTTAAGAATGTTTTTGTGCTAG	0.197 z-score
GACGGCCTGGGTATCGGGACGTGCTAG	-0.656 z-score
TTAGGTCTCCTATTGCTTTAGTGCTAG	0.39 z-score
TTAGGCCTCCTTATCCTTTAGTGCTAG	0.23 z-score
TTAGGTTCCGGTTTCGGTTTGTGCTAG	13.7 z-score
GACTCTTTCTGTCAGTTTTGGTGCTAG	1.14 z-score

Study 3
Target: RNA binding protein fox-1 homolog 2, RRM domain, GST-SBP tag (RBFOX2, Homo sapiens, UniProt O43251-10, residues 100-194)
Method: RNA Bind-n-Seq
Molecule type: RNA
Sample: in vitro
Concentration: 365 nM
Setting: natural RNA segment, single round, ends assumed
Baseline: no-protein control
Direction: higher = stronger binding
Target sequence (chain): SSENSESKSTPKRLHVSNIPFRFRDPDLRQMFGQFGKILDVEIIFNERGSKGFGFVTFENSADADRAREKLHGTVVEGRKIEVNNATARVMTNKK
Oligonucleotide	RBNS enrichment (R)
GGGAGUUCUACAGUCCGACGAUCUAAUAACCUGGUUAUCUACCUGUUCCAUUCCAUGGAACCAUGGAGGAGGAAGACCCUCAGUUAUUUUGUCACCCAACCUGGCAUAGGACUCUUUGGUCCUACCCGCUUCCUGGAAUUCUCGGGUGCCAA	0.276
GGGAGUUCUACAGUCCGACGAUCAAAGAUUAAAUUCUCCAAUGAUAUUUUAAAAAAUAUCAACCUACAUGCACUUUAGAAUGUAAAAUAACAAUGACUAUUUUAAACUCGAAGACCCACUAUUUUGAGUAUUUUGGAAUUCUCGGGUGCCAA	0.883
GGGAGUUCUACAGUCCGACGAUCGAGGCAGAGAGAUAAGGGAGGCCCCUCCCCCCUCCCGGAGGCCAGAACCCCGUGGGGUGGGGGAGAGGAUGUUUCUGUGGGCCCCUUCACCCCUCCUCUGUCUGCACCUCUGGAAUUCUCGGGUGCCAA	0.408
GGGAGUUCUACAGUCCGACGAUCGAGAGCGCACAAUAGCUACUGAACAAGCUGUGACUGAACUGUACAUAGACCUGAGAGGAGCAGAGAAGGAACACUACAUUCUCUAACGUUCUGUUAACCUUUGUACCAAAUGGAAUUCUCGGGUGCCAA	0.271
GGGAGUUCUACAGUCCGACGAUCUCUGGACCAAGUAAAGAUGGGUCCGUGGCCCACACUCGGUCAUGUGCUCAGACAACGACUGAUGAAAACGCCCAUGCGGUUUGCAUCGACUGAUAGUGUGUUCUUUCCGGUGGAAUUCUCGGGUGCCAA	3
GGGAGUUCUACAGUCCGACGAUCAUGAUGAAAAUUUAUACUUUCACAUAGGAAAAUAAUUGCCUUUCCAUUGCUCCUUCUGAAGCAUUUCUCAUGUCUAGGUUUUCCUUGGAAGCAUAUUUAGCCAUCUAUGUUGGAAUUCUCGGGUGCCAA	0.357
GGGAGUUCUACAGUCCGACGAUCCCCAUGGGUCCCUUACUAGAGAGGUUGAGUGAAUUUGCCUUCAGUUAACAUGGGACCUUCUGUUUAGCUUCCUCUUGCUUCCCAAAGAUUUUAAGCAUUUUGUAAAUGUAUGGAAUUCUCGGGUGCCAA	0.333
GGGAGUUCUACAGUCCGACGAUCUUUUUUGCCAUUCCGGAAGCAAUCCAUUUUUAUUCACUUGUGUGUCAUGUAAUGGUCUUUGGCAGGAGAGAGCACUGAGUCAUUGCUGGAGUUCAGUUCAACAGAGCUGCUGGAAUUCUCGGGUGCCAA	0.351
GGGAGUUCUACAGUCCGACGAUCUAACAUUGGGAUUUUACUUUGCCAGCCCCAGCCUUCAGAACUCCAUUGUCAUAGUACACCUGUAAAAAUGGUUGCACAUCAGAAGGGGCUUUGAAGCGCUUGUAUGUUGUUGGAAUUCUCGGGUGCCAA	0.749
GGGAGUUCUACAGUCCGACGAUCAGGCAGAGAGGCAGGCUGCCAGGCGCCACCAGCUGCCCCGCCCUUCGGCUGCCCAGCUCCGUGGAUAGACCUCCUCUGGGGGUGGUGCUGCUUGUAUGUUUACAUGAAAUUGGAAUUCUCGGGUGCCAA	0.891
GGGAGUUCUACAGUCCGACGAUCUCUCUUCUUGCAUGUCCACAGUAAUGUAUUUGUGGUUUUUAUUUUGAACGCUUGCUUUUAGAGAGAAAACAAUAUAGCCCCCUACCCUUUUCCCAAUCCUUUGCCCUCAAUGGAAUUCUCGGGUGCCAA	4.38
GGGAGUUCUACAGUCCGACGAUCAGAUUAUUGCAACAUUUAACCUGAAUUUGUAGAACGGAUGACAUAAAGCAAAUGGAUGUCAAAUGAACGCUGAGCCUGACAGCCUGGGAUGGAGGGGAAGCCCCGCCUCUUGGAAUUCUCGGGUGCCAA	2.18

Study 4
Target: Sal-like protein 4, full length isoform B (SALL4, Homo sapiens, UniProt Q9UJQ4-2, residues 1-616)
Method: universal PBM
Molecule type: double-stranded DNA, one strand shown
Sample: in vitro
Concentration: not given
Setting: 8-mer, flanks averaged, mean of replicates
Direction: higher = stronger binding
Oligonucleotide	E-score
AACAATGT	0.209
ATAAACGA	0.328
CAAGTCAC	0.0542
AGTACCTA	0.186
CCATTCCC	-0.249
GAGCATCA	0.0183
AAATCCTG	0.0618
AGTGACGG	-0.143
TACAAGTA	0.234
GAATGGTA	0.217
CGGCGTCA	-0.243
CGCCTTAC	-0.0223
CATTACGC	-0.00679
CCGTAACC	-0.134
CTAGGGCC	-0.232
TGCATAAA	0.305
CTCGAACA	0.0299
AGAAGGGG	-0.214
GAGTTTAC	0.0178
CCCAATCG	-0.181
GACCTGCA	-0.0331
AACCGACA	0.0406
AAGAGACG	-0.0239
ACGAAGCT	-0.088
